Measured values from different studies.
Each numbered part is a random draw from the data of one study; scales do not carry over between parts. Positions count from the first letter of the parent shown.

Block 1
Target: ABI1, truncated, D143A, DHFR fusion (Arabidopsis thaliana)
Technique: DHFR PCA, deep sequencing
Medium: yeast
Setting: methotrexate growth selection, single substitutions
Added: (+)-ABA 4.8 µM
Baseline: wild-type fitted maximum
Reading: higher = stronger binding
Starting sequence: PYL1, truncated, DHFR fusion (Arabidopsis thaliana); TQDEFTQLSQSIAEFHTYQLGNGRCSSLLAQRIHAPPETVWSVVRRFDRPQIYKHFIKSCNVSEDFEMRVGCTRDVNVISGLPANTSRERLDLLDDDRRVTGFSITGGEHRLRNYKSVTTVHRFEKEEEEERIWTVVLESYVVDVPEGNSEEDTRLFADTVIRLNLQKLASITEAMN
Substitution | relative binding score
D75R | 63.5%
N165P | -4.07%
H34V | 48.9%
D96E | 78.4%
P83Y | 6.19%
F56Q | -0.131%
I162S | -2.12%
V70F | -6.69%
L91R | 14.6%
V70D | 9.7%
S59G | 52.8%
R45N | -5.69%
L93I | 97.8%
S27K | 5.79%

Block 2
Target: Ras GTPase-activating protein-binding protein 1, RRM domain (G3BP1, Homo sapiens, UniProt Q13283)
Sequence of UniProt Q13283 (whole entry, looked up): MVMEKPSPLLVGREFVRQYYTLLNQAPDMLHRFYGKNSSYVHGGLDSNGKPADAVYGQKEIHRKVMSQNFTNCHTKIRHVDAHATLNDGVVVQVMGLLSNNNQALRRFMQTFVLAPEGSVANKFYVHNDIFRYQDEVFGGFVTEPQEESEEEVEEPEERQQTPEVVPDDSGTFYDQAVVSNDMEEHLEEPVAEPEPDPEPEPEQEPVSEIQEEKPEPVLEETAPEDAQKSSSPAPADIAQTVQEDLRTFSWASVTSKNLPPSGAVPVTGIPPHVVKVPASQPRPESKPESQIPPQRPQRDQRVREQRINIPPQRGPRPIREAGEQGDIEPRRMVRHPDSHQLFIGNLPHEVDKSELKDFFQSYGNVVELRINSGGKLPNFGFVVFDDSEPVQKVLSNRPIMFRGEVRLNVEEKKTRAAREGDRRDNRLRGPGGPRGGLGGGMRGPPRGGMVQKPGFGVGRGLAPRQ
Technique: RNA Bind-n-Seq
Molecule type: RNA
Medium: in vitro
Concentration: 1 µM
Setting: whole 134-nt RNA, ends assumed
Added: 150 mM KCl
Baseline: input library
Reading: higher = stronger binding
Constant ends, left off below: GGGAGUUCUACAGUCCGACGAUC … UGGAAUUCUCGGGUGUCAAGG
Strand | log2 enrichment
AGUCCUGUGCUACACAUCGUAUGUACCGAAUCGGGAAAAAGGAAAAAGGGGAAAAAGGAAAGUAUUAUGUUACGCCGUUCGGAUCUGCAC | 0.00432
GUCCUGUGCUACACAUCGUAUGUACCGAAUCGGGGAAAGGGGUUUUUUUGGGGUGGGGAAAGUAUUAUGUUACGCCGUUCGGAUCUGCAC | 1.01
CAAGUCCUGUGCUACACAUCGUAUGUACCGAAUCGGGGUUUGGGUUUGGGUUUGGAAAGUAUUAUGUUACGCCGUUCGGAUCUGCACUUC | -0.485
CAAGUCCUGUGCUACACAUCGUAUGUACCGAAUCGGCCCCGGGCCCCGGGCCCCGGAAAGUAUUAUGUUACGCCGUUCGGAUCUGCACUU | -1.29
AAGUCCUGUGCUACACAUCGUAUGUACCGAAUCAAACCCAAACCCCCAAAUUUAAAAAAGUAUUAUGUUACGCCGUUCGGAUCUGCACUU | -0.0531
UCCUGUGCUACACAUCGUAUGUACCGAAUCGGGUUUUUGGGUUUUUUUGGGUUUUUGGGAAAGUAUUAUGUUACGCCGUUCGGAUCUGCA | -0.0091
GGCUGCUGGAGUGCCGUGAGCAGGCCGCGGGAACGUCGCCGUCACCUUGUCUCGGGGCCUCGGCGCUGCUUCCCGCCAAAACACGUUUAC | -0.63
GCAGGAAGUAAAAACAAAUGGAAAUGCUUCGGAUAGUGGCAGUGGUGGGGGUUGCUAAGGAAAGGGUGGGAUGGGAGUGGGUAAAGAGUU | 1.15
UGGGAGGUGGAUCUUGUUUAUUUUUUUAGCUCAUUUCCAGGGGUGGGAAUUUUUUUUUAAUAUGUGUCAUGAAUAAAGUUGUUUUUGAAA | 1.63
UGGUCCUGGUGGCAUGCGGGGAGGAAGAGGUGGCCUCAUGGAUCGUGGUGGUCCCGGUGGAAUGUUCAGAGGUGGCCGUGGUGGAGACAG | 0.442

Block 3
Target: MAFG, bZIP domain (human)
Technique: DHFR protein complementation
Medium: yeast
Setting: single substitutions, most at no-binding floor
Baseline: wild-type JUN-FOS pair
Reading: higher = stronger binding
Starting sequence: JUN, bZIP domain (human); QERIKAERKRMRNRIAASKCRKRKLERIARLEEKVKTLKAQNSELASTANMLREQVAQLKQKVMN; partner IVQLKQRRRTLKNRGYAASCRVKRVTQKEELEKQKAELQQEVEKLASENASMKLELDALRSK
Substitution | binding fitness
V56H | -1.39 natural log
S47P | -1.47 natural log
I28V | -1.43 natural log
L38D | -1.5 natural log
L38V | -1.49 natural log
Q41W | -1.48 natural log
I28E | -1.56 natural log
K34W | -1.55 natural log
R30E | -1.33 natural log
V35E | -1.52 natural log
L45P | -1.49 natural log
E32K | -1.45 natural log
A29K | -1.45 natural log
E32Q | -1.24 natural log
R53M | -1.52 natural log
K34A | -1.49 natural log
L38N | -1.52 natural log
A57R | -1.19 natural log
L31G | -1.45 natural log
V35R | -1.48 natural log
T37N | -1.4 natural log
L38I | -1.51 natural log
S47N | -1.44 natural log
K36M | -1.27 natural log
A49I | -1.37 natural log

Block 4
Target: CCND3, cyclin fold, Cln2 fusion (human)
Technique: yeast growth competition, sequencing
Medium: yeast
Setting: weak parent motif
Baseline: not given
Reading: higher = stronger binding
Starting sequence: MASTL docking peptide (human); PMIAKNLMCELDE; partner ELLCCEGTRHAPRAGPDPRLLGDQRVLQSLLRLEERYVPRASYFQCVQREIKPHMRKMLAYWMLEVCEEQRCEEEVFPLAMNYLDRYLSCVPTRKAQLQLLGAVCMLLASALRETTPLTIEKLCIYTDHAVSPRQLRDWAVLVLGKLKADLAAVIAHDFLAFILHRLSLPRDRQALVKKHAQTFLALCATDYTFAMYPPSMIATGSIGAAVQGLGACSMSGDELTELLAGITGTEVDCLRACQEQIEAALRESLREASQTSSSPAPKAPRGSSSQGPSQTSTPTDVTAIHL
Substitution | normalised enrichment score
PMIAKNLGCELDE [M8G] | -0.00638
PMIYKNLMCELDE [A4Y] | -0.195
PPIAKNLMCELDE [M2P] | -0.105
PMIPKNLMCELDE [A4P] | -0.03
PMIAKNLQCELDE [M8Q] | -0.31
PMIAGNLMCELDE [K5G] | -0.4
PMIAKNCMCELDE [L7C] | -0.12
PFIAKNLMCELDE [M2F] | 0.164
PMIAKTLMCELDE [N6T] | 0.32
PMIAKNLMCELHE [D12H] | 0.0502
PMIAKNLMYELDE [C9Y] | -0.403
PMGAKNLMCELDE [I3G] | 0.185
PMIAKNLACELDE [M8A] | -0.000935
PIIAKNLMCELDE [M2I] | -0.236
PMDAKNLMCELDE [I3D] | -0.145
PMIAKNLMCELCE [D12C] | -0.0661
PMIAKNLWCELDE [M8W] | 0.191
PMCAKNLMCELDE [I3C] | 0.09
PMIAKNLMCYLDE [E10Y] | 0.158
PMIAKNLMCELVE [D12V] | 0.0167
PMIAKNLMWELDE [C9W] | -0.379
PMIAKNLMRELDE [C9R] | 0.0565
PMIAKWLMCELDE [N6W] | -0.15
PHIAKNLMCELDE [M2H] | 0.202
PMIAKNLMVELDE [C9V] | 0.0191

Block 5
Target: Histone acetyltransferase KAT6A, both winged helices, GST fusion (KAT6A, Homo sapiens, UniProt Q92794, residues 1-181)
Technique: protein binding microarray
Molecule type: double-stranded DNA, one strand shown
Medium: in vitro
Concentration: not given
Setting: 8-mer, flanks averaged, mean of 2 arrays, mostly near background
Baseline: not given
Reading: higher = stronger binding
Construct (chain): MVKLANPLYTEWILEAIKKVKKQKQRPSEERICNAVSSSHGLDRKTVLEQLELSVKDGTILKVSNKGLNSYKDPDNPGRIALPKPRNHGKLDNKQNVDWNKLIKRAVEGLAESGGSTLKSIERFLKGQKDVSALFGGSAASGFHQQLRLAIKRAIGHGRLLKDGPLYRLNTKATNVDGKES
Strand | E-score
AAGGGCCG | 0.0354
AAGTCCCG | 0.174
AAAGTGAG | -0.177
AGCGCGTG | 0.284
CGAATTCG | 0.183
AGGGTGTG | -0.151
ACAAACAT | -0.111
GATGCCGC | 0.232
TACCAAGA | 0.0281
CGTTGGGC | -0.00513
AAACCTCT | -0.0254
CCTTTACG | 0.0736
CAATCCCG | 0.196
GATGCCCC | -0.148
CTGCAGAC | -0.0522
AATCGCGG | 0.209
ATATAGCA | -0.11
TTAATTAA | -0.174

Single results of other studies
Molecule | target | test | test system | conditions | scale | measurement | value
PhoQ, residues 284 288 289 292 302 303 AEGLLW | PhoP, residues 12 14 15 18 19 LHTVM (Escherichia coli, UniProt P23836) | Sort-seq, item: YFP reporter | E. coli | PhoQ-PhoP variant library, added: 10 µM Mg2+ | baseline: high Mg2+ state, higher = stronger signaling | fold induction | 6.9

Some of these lines once more (block 1):
Substitution | relative binding score
N165P | -4.07%
H34V | 48.9%
D96E | 78.4%
P83Y | 6.19%
F56Q | -0.131%
I162S | -2.12%
V70F | -6.69%
L91R | 14.6%
V70D | 9.7%
S59G | 52.8%
R45N | -5.69%
L93I | 97.8%
S27K | 5.79%
